Measurements from different studies.
Every numbered part comes from another study and shows a few of its results, in no order.

Set 1 — method: protein binding microarray; molecule type: double-stranded DNA, one strand shown; medium: in vitro; tested at: not given; baseline: not given; direction: higher = stronger binding
Target: Histone acetyltransferase KAT6A, winged helix 2, GST fusion (KAT6A, Homo sapiens, UniProt Q92794, residues 85-181)
Setting: 8-mer, flanks averaged, mean of 2 arrays, mostly near background
Target sequence (chain): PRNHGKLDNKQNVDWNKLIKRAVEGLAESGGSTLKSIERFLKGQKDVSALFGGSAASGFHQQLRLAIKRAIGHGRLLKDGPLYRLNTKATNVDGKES
Oligonucleotide | E-score
CGTATGGA | -0.111
ACATACTG | -0.164
AATAGCGG | 0.0229
AAGGTGTG | -0.0556
ATCAATCC | -0.0567
ACGGGACT | -0.107
AAACATAC | -0.207
AAAGATGT | -0.121
TGTTCCAA | -0.0711
CTAACGTC | -0.0702
CAGATCCG | 0.255
AGCAAACC | 0.15
AATCTCGT | 0.0331
AGCGTCCC | -0.0932
CAGTAAGA | -0.00231
ATACAGCG | -0.0126
GCTATGAA | 0.177
AGTACACT | -0.0938
AGGCGCTA | -0.0305
ATACGCAT | 0.03
CAAAACAA | -0.13
CTATTAAG | 0.00975
CGGTCGTC | -0.0612
CCTGGGAG | -0.0356
ACTGTTGG | -0.129

Set 2 — method: RNA Bind-n-Seq; molecule type: RNA; medium: in vitro; tested at: 100 nM; baseline: input RNA pool; direction: higher = stronger binding
Target: RING finger protein unkempt homolog, zinc fingers 1-6, SBP tag (UNK, Homo sapiens, UniProt Q9C0B0, residues 30-357)
UniProt Q9C0B0, sequence (30-357, looked up): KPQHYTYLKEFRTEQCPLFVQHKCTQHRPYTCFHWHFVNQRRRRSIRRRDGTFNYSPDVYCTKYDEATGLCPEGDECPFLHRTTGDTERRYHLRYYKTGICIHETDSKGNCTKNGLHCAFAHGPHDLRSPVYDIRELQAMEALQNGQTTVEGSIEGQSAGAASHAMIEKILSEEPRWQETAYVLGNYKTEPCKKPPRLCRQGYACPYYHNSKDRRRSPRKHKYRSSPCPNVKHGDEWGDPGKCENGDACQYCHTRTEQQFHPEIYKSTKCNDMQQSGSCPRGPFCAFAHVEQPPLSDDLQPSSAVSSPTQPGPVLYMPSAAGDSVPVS
Setting: RNA with constant flanks, vertebrate orthologous sites, ends assumed
Shared flanks, not repeated: GGGAGUUCUACAGUCCGACGAUC … CAACAGAGGAUUGAGCAUCA
Oligonucleotide | bound/input enrichment [ratio]
GAAGGGCUGCGUAGAGUAGGGCGUGUUCUGCUUAGCUCACUGCUUCUUGAUUUCCCUUUUUAGGGGUGGGGCAGGGUUGCGGACACAUCAGCGGGAGCUGCCGCGAGUCACCUCAUAUUU | 0.775
CAGGUCUGUAAAUGUGUGCUAAACAAAAGGAAACAAAUCAGAGUUUAUUUAUAAACAGAAUAGUUUAUUUAAAGUGAUGGUCUUUCCCUCAUUGAUAUUGUGGUAUGCAUUAUUAAUUCA | 0.414
AGGGAUGGCCCCCAAUCCCACCUCUGUUUAUUCUGUAAACUGCAACCUAUAAAUAACCUUUAGCAUUCCUAUUGUAACAAAAUUAAUUUUUAUGAAAUAAAUUAUAUUUCCUAGUCUAAU | 0.963
CCAUUUUAUAUAUGGAUGUAUUUAUACUGGCCAAACAUUUUUGACUUUUUGUUUUCGUAGGUCUUGUUGUGUAUACCUGCACCGUCUGUCUCCUUCGCUGAAGGGCUAGAGUUUUAACUU | 0.355
UUCCCCGUUACCCCUAAAGUAGAACUUUUUAAAACUGUGUCACCACCACGUCUAAAAAUUUAGCAAUAUUAGAAGAAAACACUAAUGAAGUUCUGCUCAUUGUUUUGCAAACGAGAUAGA | 0.71
UCCAGCCUCAGCUGAGUGUUUCACAGCAUUCCUUACACAGCUAUUUAACAAGUACGAGUGGAGUUAACUUUCAGGAUACGUCUAGGCACUCGGCGUUAUCCUGCAGUCCAGUUGCAGAUG | 0.159
UUCGCUGAGCGGCAGCCUGCCAUCAGUGGCCGACUCCCACUCCAGCCACUUCUCUGAGUUCAGCUGCUCCGACCUGGAGAGCAUGAAGACCUCGUGUAGCCACGGCUCCAGCGGUGGCGA | 0.248
UAUAUGCUUUGUUUAAAAUUAUUUAGAUAAGAAAUUAUUGCUGUUUACACGUGUUUUCAAAAUGGCUAUCCUAUUUUUUUAAUCCAUUUUGCAAAUAUUAGAUGUGUGUGUUUUCUUAAC | 0.466
AUAUUUAAAAUUCCAGUAGUUAUAUUUAAUGAGCAUACCUACGUUCCCUUUUCAUUAAAGUAGCUUUCAUUUCUAUUAUUCCGUUUUACUGAUAGGAACAAAUAGGAGGUCUGUGUGAGC | 0.683
AUUAAAUGCGUAUCAAAUGCUGGAUAUCCCAUUAAACCAUCAUUUAGGAUAGAUGUUAGUUUAUUGUAAUUAAGCUACAAAUAGGUUUCCUUAAACCAGAAAUGCACUGCCCUUGUCCGA | 0.475
UGAAGAUUAUUAAAGGAAGCCCCUGUGAGCUCCAACAUCUAAUUUCUUUAGAUAUUCUAAUGUCAUUUUUGUUGGAACUGUAUAUUGACAGUUCUUAUCUAAGCCUUCAUAAGGAGAAGA | 0.248

Set 3 — method: protein-binding microarray; molecule type: double-stranded DNA, one strand shown; medium: in vitro; tested at: 2540 nM top; setting: 60-bp whole probe; with: salmon DNA 0.4 mg/ml; baseline: random background probes; direction: higher = stronger binding; shared flanks, not repeated: GCCTAGCAC … GTCTTGATTCGCTTGACGCTGCTG
Target: Interferon regulatory factor 3, full length, phosphomimetic (IRF3, Homo sapiens, UniProt Q14653, residues 1-427, S386D/S396D/S398D/S402D/T404D/S405D)
Residues (chain): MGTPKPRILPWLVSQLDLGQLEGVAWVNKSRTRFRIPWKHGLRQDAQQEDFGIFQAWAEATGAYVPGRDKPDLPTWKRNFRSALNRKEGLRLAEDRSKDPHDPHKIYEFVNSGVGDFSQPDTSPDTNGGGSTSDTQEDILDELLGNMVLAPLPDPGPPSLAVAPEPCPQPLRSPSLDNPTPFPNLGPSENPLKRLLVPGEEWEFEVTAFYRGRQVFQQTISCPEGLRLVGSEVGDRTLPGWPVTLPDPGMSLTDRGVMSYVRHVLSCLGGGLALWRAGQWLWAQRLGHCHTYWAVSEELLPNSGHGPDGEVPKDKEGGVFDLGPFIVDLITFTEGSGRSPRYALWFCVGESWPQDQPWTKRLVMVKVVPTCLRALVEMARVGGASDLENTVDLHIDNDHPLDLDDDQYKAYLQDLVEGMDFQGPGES
Oligonucleotide | fitted relative affinity [z-score]
TTAGGTATGGACACTGGGTTAGTGCTA | -0.817
GACGGTTTCGACACTAGGGACGTGCTA | 3.22
TTAGGTTTCGACTTTAGGTTAGTGCTA | 3.57
TCAATTCTCTGTTTATGACTGTGCTAG | 1.67
GACGGCCTGCTTCTCCTGACGTGCTAG | -0.57
GACGGACTGGACACTGGGCACGTGCTA | -0.805
GACGGAATGGACTTTCGGGACGTGCTA | 0.388
GACGGTTTCGCTCTCGGGACGTGCTAG | 6.67
TACTGCTGGAGCTCAAGAGCGTGCTAG | -1.1
TCAGTCATCTATAATGGAACTGTGCTA | 0.0515
TCCTCTTTCTCTGCTACCCTTGTGCTA | 3.18
GACGGTTTCCTTATCCTTACGTGCTAG | 7.59
GACGGTATCGGGTATTGGGACGTGCTA | 1.43
TGAGAACTGAGTTTCGATTAGTGCTAG | 2.61
TTAGGTTTAGGTTCCGGTTAGTGCTAG | 2.23
GACGGACTGGGCTATCGGGACGTGCTA | -0.857
GACGAACTGGGGTATGGAGACGTGCTA | -0.502
GACGTTATCAGACTGGAGACGTGCTAG | 0.466
GACGGTATCGATTTTCGGGACGTGCTA | 3.01
CTAGAACTGGGGTATCGATTAGTGCTA | -0.303
GACGGTATCCAACTGCTGACGTGCTAG | 1.96
TTAGGTTTCCTTCTACTTTAGTGCTAG | 7.88
TACGGACTGGGGTATCGGGACGTGCTA | -0.565

Set 4 — method: RNA Bind-n-Seq; molecule type: RNA; medium: in vitro; tested at: 200 nM; setting: whole 134-nt RNA, ends assumed; with: 150 mM KCl; baseline: input library; direction: higher = stronger binding
Target: Fragile X messenger ribonucleoprotein 1, C-terminal low-complexity region (Fmr1, Mus musculus, UniProt P35922)
Shared flanks, not repeated: GGGAGUUCUACAGUCCGACGAUC … UGGAAUUCUCGGGUGUCAAGG
Oligonucleotide | log2 enrichment
UAACUUUAGAGGAGGAUCUGAUGGAUGUGGCAGUGGACGUGGAUUUGGGGAUGGCUAUAAUGGGUAUGGAGGAGGACCUGGAGGUGGCAA | 0.274
UCAAGUCCUGUGCUACACAUCGUAUGUACCGAAUCGGGGCCCGGCCCGGCCCGGGAAAGUAUUAUGUUACGCCGUUCGGAUCUGCACUUC | -0.566
UGGGAGGUGGAUUUUGUUUAUUUUUUUAGCUCAUUUCCAGGGGUGGGAAUUCUUUUUUAAUAUGUGUCAUGAAUAAAGUUGUUUUUGAAA | 0.197
ACCAUGCAGGUGGGCAUCUCUGGGAAGUGGGGCAAGGGGGGGAUAGGGAGGGGGGUAACACUUUGGGAACAGGUGGUCCCAGGUCGUUUC | 0.813
GCAGGAAGUAAGAACAAAUGGAAAUGCUUCGGAUAGUGGCAGGGGUGGGGGUUGCUAAGGAAAGGGUGGGAUGGGAGUGGGUAAAGAGUU | 1.16
AGUCCUGUGCUACACAUCGUAUGUACCGAAUCAAACCCCCAAACCCAAAUUUUUAAAAAAGUAUUAUGUUACGCCGUUCGGAUCUGCACU | 0.0274
UGGGGUCUGCGUACGCCUGGAGUCCUUCCCCGCUGUGCUCAGCAUGGACCCUAUCCGGAGCUUCUGCGGGAAGCUGCGGUCUCUGGCCAG | -0.782
UGCAUGUGCACUGAUAGGCCAAGGCCAGCUGAACCAGGCCAUGAAAAUCCUACAAAAAGCUGAAGGUUGGAAGUUUGUUAAACUUAUCUG | -1.41
AGUCCUGUGCUACACAUCGUAUGUACCGAAUCGGGAAAAGGGAAAAGGGGAAAAGGGAAAGUAUUAUGUUACGCCGUUCGGAUCUGCACU | 0.0253
AGUCCUGUGCUACACAUCGUAUGUACCGAAUCGGAAAAAGGAAAAAGGAAAAAGGGGAAAGUAUUAUGUUACGCCGUUCGGAUCUGCACU | -0.624
UCAAGUCCUGUGCUACACAUCGUAUGUACCGAAUCGGGAAGGGGAAGGGGAAGGAAAGUAUUAUGUUACGCCGUUCGGAUCUGCACUUCC | 0.0373
GCACGAAGUAAAAACAAAUGGAAAUGCUUCGGAUAGUGGCAGGGGUGGGGGUUGCUAAGGAAAGGGUGGGAUGGGAGUGGGUAAAGAGUU | 0.0705
GUCCUGUGCUACACAUCGUAUGUACCGAAUCAAAUUUAAAUUUUUUUAAACCCCCAAAAAAGUAUUAUGUUACGCCGUUCGGAUCUGCAC | 0.142
GCAGGAAGUAAAAACAAAUGGAAAUGCUUCGGAUAGUGGCAGGGGUGGGGGUUGCUAAGGAAAGGGUGGGAUGGUAGUGGGUAAAGAGUU | 0.154

Repeated from above (set 3):
Oligonucleotide | fitted relative affinity [z-score]
TACTGCTGGAGCTCAAGAGCGTGCTAG | -1.1
TCAGTCATCTATAATGGAACTGTGCTA | 0.0515
TCCTCTTTCTCTGCTACCCTTGTGCTA | 3.18
GACGGTTTCCTTATCCTTACGTGCTAG | 7.59
GACGGTATCGGGTATTGGGACGTGCTA | 1.43
TGAGAACTGAGTTTCGATTAGTGCTAG | 2.61
